{"data": "Earlier results that unrelated publications cite", "note": "pEC50, pIC50: −log10 of the molar value."}
{"Compound": "NC(=O)CC[C@H](NC(=O)[C@@H]1CC[C@@H]2CCN(C(=O)CCCCCC#Cc3cccc4c3CN(C3CCC(=O)NC3=O)C4=O)C[C@H](NC(=O)c3cc4cc(C(F)(F)P(=O)(O)O)ccc4[nH]3)C(=O)N21)C(=O)NC(c1ccccc1)c1ccccc1 (stereo partly drawn)", "system": "mouse, SU-DHL-1 xenograft", "conditions": "weekly dosing", "quantity": "dose for complete regression", "value": "100 mg/kg"}
{"Compound": "O=c1[nH]nc(-c2ccc(-c3nnn[nH]3)cc2)cc1O", "tested on": "influenza endonuclease", "test": "enzyme activity, inhibitor", "quantity": "pIC50", "value": 5.52}
{"Compound": "Nc1ccn([C@@H]2O[C@H](CO)[C@@H](O)C2(F)F)c(=O)n1", "tested on": "Influenza A virus H1N1", "quantity": "pEC50", "value": 6.22}
{"Compound": "O=C1N[C@@H]2CCCC[C@H]2N[C@@H]1c1c[nH]c2ncccc12", "tested on": "MRC-5 fibroblasts", "test": "cytotoxicity", "quantity": "pIC50", "value": "< 4.00"}
{"Compound": "CC(=O)c1c(O)c(C)c(O)c2c1OC1=CC(=O)C(C(C)=O)C(=O)C12C (stereo not drawn)", "test": "ABTS radical scavenging", "quantity": "IC50", "value": "10.4 µg/mL"}
{"Compound": "Cn1cc2cc(C(F)(F)c3nnc4ccc(-c5cnn(C6CC6)c5)nn34)c(F)cc2n1", "system": "human, MET-altered NSCLC patients", "conditions": "dose not given, phase I", "quantity": "disease control rate", "value": "94.4%"}
{"Compound": "C/C(=C\\C(=O)OCCCCCCCCC(=O)O)C[C@@H]1OC[C@H](C[C@@H]2O[C@H]2[C@@H](C)[C@H](C)O)[C@@H](O)[C@H]1O", "tested on": "Staphylococcus aureus", "system": "MRSA low-level resistant", "quantity": "MIC range", "value": "16 to 512 µM"}
{"Compound": "CC1(C)NC(=O)N(c2ccc(F)c(C(F)(F)F)c2)C1=O", "tested on": "Schistosoma mansoni", "system": "juvenile worms, mouse", "conditions": "oral, 50 mg/kg single dose", "quantity": "worm burden reduction", "value": "0%"}
{"Compound": "C[C@H]1COc2c(N3CCN(C)CC3)c(F)cc3c(=O)c(C(=O)O)cn1c23", "tested on": "Mycobacterium tuberculosis", "system": "H37Ra", "quantity": "MIC", "value": "1 µg/mL"}
{"Compound": "O=c1oc2cc(O)ccc2c2oc3cc(O)ccc3c12", "test": "DPPH radical scavenging", "quantity": "IC50", "value": "25.9 µg/mL"}
{"Compound": "CN[C@H](CC(C)C)C(=O)N[C@H]1C(=O)N[C@@H](CC(N)=O)C(=O)N[C@H]2C(=O)N[C@H]3C(=O)N[C@H](C(=O)N[C@H](C(=O)O)c4cc(O)cc(O)c4-c4cc3ccc4O)[C@H](O)c3ccc(c(Cl)c3)Oc3cc2cc(c3O[C@@H]2O[C@H](CO)[C@@H](O)[C@H](O)[C@H]2O[C@H]2C[C@](C)(N)[C@H](O)[C@H](C)O2)Oc2ccc(cc2Cl)[C@H]1O", "tested on": "Mycobacterium tuberculosis", "system": "H37Ra", "quantity": "MIC", "value": "65 µg/mL"}
{"Compound": "CC(=O)[C@H]1CC[C@H]2[C@@H]3CC[C@H]4C[C@@H](O)CC[C@]4(C)[C@H]3CC[C@]12C", "system": "male NIH Swiss mice", "conditions": "dose not given, pentylenetetrazol seizure model", "quantity": "seizure protection", "value": "inactive"}
{"Compound": "COc1ccc2c(c1O)-c1c(O)c(OC)cc3c1[C@H](C2)[N+](C)(C)CC3", "test": "DPPH radical scavenging", "quantity": "IC50", "value": "15.2 µg/mL"}
{"Compound": "NNC(=O)c1ccncc1", "tested on": "Mycobacterium tuberculosis", "system": "H37Ra", "quantity": "MIC", "value": "0.05 µg/mL"}
{"Compound": "Nc1nc(O)c2ncn(COC(CO)CO)c2n1", "tested on": "human cytomegalovirus", "test": "viral replication", "system": "UL97 F342Y mutant", "conditions": "concentration not given", "scale": "baseline: wild type", "quantity": "cross-resistance fold change", "value": "6 fold"}
{"Compound": "O=C1c2c(O)cc(O)cc2OC(c2ccc(O)c(O)c2)C1O (stereo not drawn)", "test": "ABTS radical scavenging", "quantity": "IC50", "value": "0.83 µg/mL"}
{"Compound": "C[C@@H](O)[C@H]1C(=O)N2C(C(=O)O)=C(SCCN=CN)C[C@H]12", "tested on": "Mycobacterium tuberculosis", "system": "H37Ra", "quantity": "MIC", "value": "16 µg/mL"}
{"Compound": "N/C(CC(O)c1cc2c(F)cc(F)cc2c2cc(C(F)(F)F)ccc12)=N\\c1ccc(F)cc1 (stereo not drawn)", "tested on": "Plasmodium falciparum", "test": "parasite growth", "system": "TM90C2b", "quantity": "pIC50", "value": 7.89}
{"note": "Excerpt of the above:"}
{"Compound": "O=C1N[C@@H]2CCCC[C@H]2N[C@@H]1c1c[nH]c2ncccc12", "tested on": "MRC-5 fibroblasts", "test": "cytotoxicity", "quantity": "pIC50", "value": "< 4.00"}
{"Compound": "CC(=O)c1c(O)c(C)c(O)c2c1OC1=CC(=O)C(C(C)=O)C(=O)C12C (stereo not drawn)", "test": "ABTS radical scavenging", "quantity": "IC50", "value": "10.4 µg/mL"}
{"Compound": "Cn1cc2cc(C(F)(F)c3nnc4ccc(-c5cnn(C6CC6)c5)nn34)c(F)cc2n1", "system": "human, MET-altered NSCLC patients", "conditions": "dose not given, phase I", "quantity": "disease control rate", "value": "94.4%"}
